Measured values collected from several papers.
Each numbered part is a random draw from the data of one study; scales do not carry over between parts. Substitutions count along the parent as printed.

Series 1
Target: RNA binding protein fox-1 homolog 2, RRM domain, GST-SBP tag (RBFOX2, Homo sapiens, UniProt O43251-10, residues 100-194)
Technique: RNA Bind-n-Seq
Form: RNA
Matrix: in vitro
Tested at: 365 nM
Notes: natural RNA segment, single round, ends assumed
Baseline: no-protein control
Reading: higher = stronger binding
Target sequence (chain): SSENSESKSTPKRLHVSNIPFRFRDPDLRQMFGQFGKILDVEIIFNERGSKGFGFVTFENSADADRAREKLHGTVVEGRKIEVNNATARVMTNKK
Oligonucleotide	RBNS enrichment (R)
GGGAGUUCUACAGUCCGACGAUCCGCCGUGGGCUGCGUCCUUUGGUCCUGUCCCCGCAGCCCUGGCAGGGGGCAUGCGGUCGGGCAGGGGCUGGAGGGAGGCGGGGGCUGCCCUUGGGCCACCCCUCCUAGUUUGGAAUUCUCGGGUGCCAA	0.363
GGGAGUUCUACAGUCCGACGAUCCCCGUGACUGGGCAUCCCUCACCAGCUACUUUGACAUGCACACUGCCUGACGCUUCUCCACCCAGUGAUUGUGCUCCUGUCCCAAAGCACCCCGCUCAAGUCUCCCACCCUGGAAUUCUCGGGUGCCAA	1.27
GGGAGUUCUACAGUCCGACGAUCCCAUGGCCACUCCCUGCCCCCAGCCUGGCUGGACAGCAAGGAAUCCACAGCCCACACGUGAGCUCCCUCCUCACCCCCAGGCAGGGAAGCCCCUCCUGCCAGUCCCUGUCUGGAAUUCUCGGGUGCCAA	0.32
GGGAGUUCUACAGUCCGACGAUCCAUUUAAAAAAAUGCCAUAACUAUUAAACACCUUGUUUACAGACAGAUGAAAUAAAUUUAUUCCAACAAAUACUCCAUUGGACUCCUGUUUUUAUUAUAAAUUUUUGGCUUGGAAUUCUCGGGUGCCAA	0.453
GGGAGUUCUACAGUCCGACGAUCGAUAAAAUUGCCAAAGUGAUCCAAGGAUUGUGCAUGUUGGGAAACCCAUAUGAGAGAAAGGAUUCUCAUACUUAGAACUUUCCUAUGAAGAAAUGGUGGUAAACUUUCUCUGGAAUUCUCGGGUGCCAA	18.7
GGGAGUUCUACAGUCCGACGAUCCCUCUCUAGAGCCUUCCUCAGAGCUGUGCAAGCAUGGGAGCCUCUCCUUGCUCCUCCCAGUCCUGCACUGGCAUGAGUUCGGGUGUAGGAGGACAUGACUCCAAGGUGCUUGGAAUUCUCGGGUGCCAA	1
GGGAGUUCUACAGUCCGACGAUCUUUUAUUUAUUUAAUUUUCUUGGUUUGGAGAUGUCAGUCCCAAACACCAGAGUCUGUACUUUUCUAUAACACAGCUCAGAUUAAGGUAGGGCAUAUGCCAAGGAGGUUCUUGGAAUUCUCGGGUGCCAA	0.419
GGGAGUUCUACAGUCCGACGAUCCAAAAACAACAAAGAUAAAAUCAAUUUGGAGCUUUAUAUGACAAAAAGGAAGAAGUCCAAAAAUAUAUAGCCUUCCCCCCUCCCACAUAUCUGAUCCAAAUAUUAAAUAUUGGAAUUCUCGGGUGCCAA	0.535
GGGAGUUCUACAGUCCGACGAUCAGAUGGCCAUAGGAGAGGAGGGUUCCUCUUAGGUCAGAUGGAGGUUCUCAGAGCCAAGUCCUCCCUCUCUACUGGAGUGGAAGGUCUAUUGGCCAACAAUCCUUUCUGCCUGGAAUUCUCGGGUGCCAA	0.305
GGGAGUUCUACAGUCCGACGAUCUCAGCUCCUGCUGCCACCAACCCAGCCACUGUCUAGCACCCCUCCCCUGUCCCCACUCCCACCCCCUAGGGUCCUUGCUCCCAGUAUCUUCCUACAGGGAAGAAGAGCAAUGGAAUUCUCGGGUGCCAA	0.954
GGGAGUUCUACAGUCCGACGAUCUUGACUUGCAAACCAGCCUUUUCUAAUAGGCUAAUAUUGCUGAGGCCUUAAAGGAAAUGGACAAAAAUUAUCCAGAAGGGGUACUUUUCCAUUGUAUCUUUCUAAUAAGGUGGAAUUCUCGGGUGCCAA	0.383
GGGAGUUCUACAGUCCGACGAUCUAAAGUUGUUCUGUUAACUUUUGUACCAAAUAGCAAUACAAACUAGUUGGAACAGUUGGAACUUACAUACAUGGGGACUGGAAAUCUCUAUUUUGUCCCUGAAUAAUAUUUGGAAUUCUCGGGUGCCAA	0.272

Series 2
Target: Centromere-binding protein 1, full length, His-tagged (CBF1, Saccharomyces cerevisiae, UniProt P17106, residues 1-351)
Sequence of UniProt P17106 (whole entry, looked up): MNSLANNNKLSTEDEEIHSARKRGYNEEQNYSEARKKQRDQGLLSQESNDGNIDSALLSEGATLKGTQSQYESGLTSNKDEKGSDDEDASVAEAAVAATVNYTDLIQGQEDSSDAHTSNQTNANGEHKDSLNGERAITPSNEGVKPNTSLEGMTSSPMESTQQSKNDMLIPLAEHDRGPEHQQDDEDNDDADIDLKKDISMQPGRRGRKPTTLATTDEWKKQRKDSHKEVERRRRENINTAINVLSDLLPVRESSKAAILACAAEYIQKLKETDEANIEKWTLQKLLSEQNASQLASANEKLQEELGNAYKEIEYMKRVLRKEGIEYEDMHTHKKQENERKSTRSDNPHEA
Technique: competition protein-binding microarray
Form: double-stranded DNA, one strand shown
Matrix: in vitro
Tested at: 2 µM
Notes: whole 60-bp probe, lowest competitor level
Added: Pho4 competitor, 0.05 µM
Reading: higher = stronger binding
Oligonucleotide	fluorescence intensity [a.u.]
TAACGATGTCATTGCCACGTGGAACATCTTGATTGGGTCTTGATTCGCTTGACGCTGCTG	840
AACATCATAAATTAGCACGCAAACGGTAAAGAACAAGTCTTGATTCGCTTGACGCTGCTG	86.3
GCCGCAAATGGCAATCACATGACAATGGCTTGGCCCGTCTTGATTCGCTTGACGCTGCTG	1500
TCTTACTGCCCTTATAATGTGACGCCAACTTTAGCGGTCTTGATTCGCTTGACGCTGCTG	84.3
GACGCAGCGGGCTTGCTTGTGGACTGCTTGGTGGGGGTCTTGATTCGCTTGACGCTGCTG	71.6
GTCTTGTCTCATTTTCACGTGGTCTTCCCCACTTCAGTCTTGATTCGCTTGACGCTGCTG	977
AAATTACTAAGTTGTCACTTCACTTACCCCGTATGAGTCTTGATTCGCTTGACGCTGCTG	79.5
TGCAGGGAGAGGTGGCACGAGGCCGAGAGACGGGAGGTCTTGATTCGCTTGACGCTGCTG	113
TTAACGGGAAGGCGCGTCGTGATGGTCTCGCGCTTTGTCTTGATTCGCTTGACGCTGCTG	61.9
ATACCAAATGTCCAGCCCGTGACGGTGCAGCAGGGTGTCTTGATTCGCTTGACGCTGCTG	152
CGTCCTAGTGATTGCAGCGTGGGTGCCATGAGGAAGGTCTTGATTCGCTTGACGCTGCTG	74.1
CATACCCAACCTTGTCACTATACTTAAGATATTTGTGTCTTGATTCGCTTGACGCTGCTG	77.4
AACAACACCAGCACCTTCGTGACGGCCGATTAATGGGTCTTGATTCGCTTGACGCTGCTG	69
AAAGCGGTAATTTGCGGGGTGGGTGCAGATATCTATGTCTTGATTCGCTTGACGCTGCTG	77.5

Series 3
Target: Interferon regulatory factor 5, full length, phosphomimetic (IRF5, Homo sapiens, UniProt Q13568-2, residues 1-514, K96S/S451D/S453D/S456D/S462D)
Technique: protein-binding microarray
Form: double-stranded DNA, one strand shown
Matrix: in vitro
Tested at: 250 nM
Notes: 60-bp whole probe
Added: salmon DNA 0.4 mg/ml
Baseline: random background probes
Reading: higher = stronger binding
Shared flanks, not repeated: GCCTAGCAC … GTCTTGATTCGCTTGACGCTGCTG
Oligonucleotide	log fluorescence [z-score]
GACGATCTCAGAGTGGAGACGTGCTAG	-0.146
TAGTATATACACTTATGACTGTGCTAG	0.324
TCAGTGCTCCTTTTAATACTGTGCTAG	0.191
GTCATTCTCAACCCTGGTGCTGTGCTA	-0.0313
TTAGGTCTCCTAGTGCTTTAGTGCTAG	-0.625
GACGATTTCAGTATCGATACGTGCTAG	8.47
GACGGTCTACTTTTCCTGACGTGCTAG	0.37
GACGGACTGGTCTATCGGGACGTGCTA	0.0211
TTAGGACTGGACTATCGGTTAGTGCTA	5.71
TTAGATCTCAGACTGGATGAGTGCTAG	-0.251
GATGGTTTCGGTCTCGGGACGTGCTAG	10.1
TTAGGACTTCTACTGCTTTAGTGCTAG	0.127
GACGGTATTGACTATCGGGACGTGCTA	1.59
GACGGTTCCGGTTTCGGGGCGTGCTAG	3.78
TGTGTCTGGAATTTTTAGAAGTGCTAG	-0.0285
TCAAGTATTTATCTGCAACTGTGCTAG	0.617
TCAATTTTGAGACTCATACTGTGCTAG	0.135
TTATATATCGGGTTTCGATTAGTGCTA	7.07
TTAGGTATCCTACTGCGTTAGTGCTAG	-0.104
TTAGATATCCTTCTCCTTTAGTGCTAG	0.504
GCTCCTTCCCCTCTAGGTCTGTGCTAG	-0.0456
TTAGGGCTGGGTTTCGGTTAGTGCTAG	8.01
GACGGTTTCGACACTGGGAACGTGCTA	4.98
TTAGGTCCCCTTTTCCTTTAGTGCTAG	-0.0873
TTAGATTCCAGTTTCTATTAGTGCTAG	3.81

Series 4
Target: Sal-like protein 4, full length isoform B (SALL4, Homo sapiens, UniProt Q9UJQ4-2, residues 1-616)
Technique: universal PBM
Form: double-stranded DNA, one strand shown
Matrix: in vitro
Tested at: not given
Notes: 8-mer, flanks averaged, mean of replicates
Reading: higher = stronger binding
Oligonucleotide	E-score
CGCCTTTC	-0.061
AATACACT	0.28
AATTCGCC	-0.0146
CCGAAACC	-0.277
ATTATCGG	0.117
CTCGAGGC	-0.253
CCCGGTGA	-0.351
CCCGCGGC	-0.305
CGATTCCA	-0.0428
AATTGGCG	0.195
ACCAGGGT	-0.268
CACTTGTC	-0.0653
AGCACCTG	-0.00335
GCCTGACA	-0.213
GTCCGGGA	-0.26
AGACATGC	0.0439
ACCGTGAG	-0.26

Series 5
Target: CCNF, cyclin fold, Cln2 fusion (human)
Technique: yeast growth competition, sequencing
Matrix: yeast
Notes: strong parent motif
Baseline: not given
Reading: higher = stronger binding
Starting sequence: SAMHD1 docking peptide (human); ASKSRVQLFKDDP
Substitution	normalised enrichment score
V6M	0.728
D11R	1.01
F9Y	0.213
L8S	0.125
K3A	1.38
D11A	0.787
K10I	0.804
D12T	0.999
K10C	0.911
D12P	1.22
K10E	0.745
Q7M	0.312
F9G	-0.361
K3W	1.28
S4F	3.06
R5Q	0.877
D11N	1.18
V6C	0.873
D11G	1.19
S4V	6.21
F9E	0.214
R5N	-0.166
K3S	1.06
F9W	0.666
S4E	-0.0608

Series 6
Target: Histone acetyltransferase KAT6A, both winged helices, GST fusion (KAT6A, Homo sapiens, UniProt Q92794, residues 1-181)
Technique: protein binding microarray
Form: double-stranded DNA, one strand shown
Matrix: in vitro
Tested at: not given
Notes: 8-mer, flanks averaged, mean of 2 arrays, mostly near background
Baseline: not given
Reading: higher = stronger binding
Target sequence (chain): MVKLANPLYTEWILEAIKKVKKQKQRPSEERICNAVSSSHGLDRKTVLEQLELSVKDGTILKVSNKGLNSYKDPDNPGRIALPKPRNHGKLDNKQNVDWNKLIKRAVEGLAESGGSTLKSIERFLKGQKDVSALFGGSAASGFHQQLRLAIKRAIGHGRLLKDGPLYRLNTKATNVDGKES
Oligonucleotide	E-score
GTGCAGTA	0.0329
CATCTAGA	-0.0755
ACGTTCGG	0.0955
GACGCAGC	0.0895
ACCAAAAC	-0.113
GCGACAAA	0.0626
AACCGGTA	0.217
ACTAAGAT	-0.0592
ACATCGCA	0.0643
GCTCCGCC	0.0868
CATTTAAG	-0.186
ACTGCTAC	-0.169
GAGCATAC	-0.113
AAGAGGCT	-0.214
GGCATAAC	0.041
ATTATCAG	-0.0267
AGTTTACC	-0.0806
AAGAAAAG	-0.257
ACAACAAG	-0.142
ACCTGAGA	-0.275
CTATAGGC	0.0248
AGGAATTA	-0.148

Other studies, line by line
Molecule	target	assay	system	setting	scale	quantity	value
PhoQ, residues 284 288 289 292 302 303 NSMLDC	PhoP, residues 12 14 15 18 19 TPLRH (Escherichia coli, UniProt P23836)	Sort-seq, refers to: YFP reporter	E. coli	PhoQ-PhoP variant library, added: 10 µM Mg2+	baseline: high Mg2+ state, higher = stronger signaling	fold induction	1.29
